Measured values from different studies.
Compare with care: the assays were run in different laboratories. Several values in a cell are separate wells, animals, samples, runs or records.
Target: Serine/threonine-protein kinase N2 (PKN2, Homo sapiens, UniProt Q16513)

| SMILES | effect on | mode | technique | concentration | reference | endpoint | result |
| --- | --- | --- | --- | --- | --- | --- | --- |
| CNC(=O)C1CCN(c2cc(C)c(F)cc2NC(=O)c2ccc(-c3cc(O)ccc3C)c(C)c2)CC1 | binding |  | competition with immobilised ligand | 1 µM |  | remaining binding | 100% |
| COc1cc(Nc2nccc(-c3cnn4nc(OC)ccc34)n2)cc(C(F)(F)F)c1 | binding |  | competition with immobilised ligand | 1 µM |  | remaining binding | 100% |
| CN1CC[C@@H](COc2cnc(C#N)cc2-c2ccn3nc(NC(=O)C4CC4)cc3c2)C1 | enzyme activity | inhibitor |  | 1 µM |  | inhibition | -10% |
| C=CC(=O)Nc1cccc(-c2cnc3[nH]cc(C(=O)NC(C)(C)C)c3n2)c1 | kinase activity |  |  | 0.1 µM |  | inhibition | 18% and 17% |
| COc1ccc(NC(=O)Nc2ccc3c(c2)C(=O)N(C(C)CO)CC(C)C(CN(C)Cc2ccc4c(c2)OCO4)O3)cc1 (stereo not shown) | kinase activity |  |  | 0.03 µM | control | remaining activity | 95% |
| Nc1nc(Nc2ccccc2)sc1C(=O)c1ccccc1 | enzyme activity | inhibitor |  | 10 µM |  | remaining activity | 33% |
| CNC1C[S+]2CC[S+]3CC[S+](C1)[Ru-4]321([N]=C=S)[n]2c3ccc(OC)cc3c3c4c(c5cc(F)c[n+]1c5c32)C(=O)NC4=O (stereo not shown) |  |  | KinomeScan | 0.1 µM | untreated | remaining binding | 94% |
| CCN1CCN(Cc2ccc(C(=O)Nc3ccc(C)c(NCc4cnc5[nH]ccc5c4OC)c3)cc2C(F)(F)F)CC1 | binding |  | competition with immobilised ligand | 1 µM |  | remaining binding | 58% |
| C=CC(=O)N1CCCC(n2c(=O)c3ncccc3n(Cc3ccc(Oc4ccccc4)cc3)c2=O)C1 (stereo not shown) | cell-free assay |  | competition with immobilised ligand | 1 µM |  | remaining binding | 100% |
| Cc1ccc(-c2c(/C=C(\C#N)C(=O)NC(C)C)n(CCCO)c3ncnc(N)c23)cc1 | cell-free assay |  | competition with immobilised ligand | 1 µM |  | remaining binding | 98% |
| Nc1ncc(-c2cc(-c3cnn(CC(F)(F)F)c3)ncc2F)nc1C(=O)NC1CNCC(F)C1 (stereo not shown) | enzyme activity |  |  | 1 µM | DMSO control | remaining activity | 96.2% |
| Cc1cccc(-c2ccc3nc(NC(=O)C4CCOCC4)nn3c2)c1 | enzyme activity |  | Dundee kinase panel | 10 µM |  | remaining activity | 103% |
| CC(C)=CC1OC(C)(C)C2C=C3C(=O)C(Cl)=CC(O)C3C3C(O)C4OC4C(=O)C132 (stereo not shown) | cell-free assay |  | competition with immobilised ligand | 10 µM |  | remaining binding | 95% |
| Cc1cccc(-c2ccc3nc(NC(=O)C4CCCCC4)nn3c2)c1 | enzyme activity |  | Dundee kinase panel | 10 µM |  | remaining activity | 98% |
| Cc1cccc(O[C@H]2CCC[C@@H](C(C)CNCc3ccncc3)C2)c1 (relative stereo) | enzyme activity | inhibitor |  | 10 µM |  | inhibition | 0% |
| NC(=O)[C@@H](O)C[C@H]1CCc2sc3ncnc(O[C@H]4CC[C@H](N5CCOCC5)CC4)c3c21 | enzyme activity | inhibitor |  | 10 µM |  | inhibition | 3% |
| COc1c(Cl)cccc1Nc1c(-c2ccncc2C#C[C@@]2(C)CCCN2C(=O)/C=C/CN(C)C)[nH]c2c1C(=O)NCC2 | binding |  | competition with immobilised ligand | 3 µM |  | remaining binding | 100% |
| O=C(Nc1ccc(Oc2ncnc3[nH]cc(-c4ccccc4)c23)c(F)c1)c1c2n(n(-c3cc(F)ccc3F)c1=O)CCCC2 | enzyme activity | inhibitor |  | 0.5 µM |  | inhibition | -4% |
| c1ccc2c(Nc3cc(C4CCC4)[nH]n3)nc(Nc3ccc4nc[nH]c4c3)nc2c1 | enzyme activity | inhibitor |  | 0.25 µM |  | remaining activity | 18% |

For quick reference, copied from above:
| SMILES | effect on | mode | technique | concentration | reference | endpoint | result |
| --- | --- | --- | --- | --- | --- | --- | --- |
| NC(=O)[C@@H](O)C[C@H]1CCc2sc3ncnc(O[C@H]4CC[C@H](N5CCOCC5)CC4)c3c21 | enzyme activity | inhibitor |  | 10 µM |  | inhibition | 3% |
| Cc1cccc(-c2ccc3nc(NC(=O)C4CCOCC4)nn3c2)c1 | enzyme activity |  | Dundee kinase panel | 10 µM |  | remaining activity | 103% |
